Values quoted from earlier work as cited in several papers.
Compare with care: the assays were run in different laboratories. ± gives the spread as reported.

O[C@H]1CCCN[C@@H]1CCCn1cnc2c(Cl)c(Cl)ccc21
IC50 (OCT1; inhibitor): 55.3 µM

O=C(O)C(F)(F)C(F)(F)C(F)(F)C(F)(F)C(F)(F)F
IC50 (CYP2C9; inhibitor; Tox21 screening): 17.5 ± 4.37 µM

CC(O)C(C)n1ncn(-c2ccc(N3CCN(c4ccc(OCC5COC(Cn6cncn6)(c6ccc(Cl)cc6Cl)O5)cc4)CC3)cc2)c1=O (stereo not drawn)
IC50 (CYP3A4 human; inhibitor; together with: midazolam): 0.0046 µM

C=C[C@@H]1C[C@]1(NC(=O)[C@@H]1C[C@@H]2CN1C(=O)[C@H](C(C)(C)C)NC(=O)O[C@@H]1C[C@H]1CCCCCc1nc3ccc(OC)cc3nc1O2)C(=O)NS(=O)(=O)C1CC1
IC50 (CYP1A2; human liver microsomes): > 100 µM

FC1(F)C(F)(F)C(F)(F)C2(F)C(F)(C1(F)F)C(F)(F)C(F)(F)C1(F)C(F)(F)C(F)(F)C(F)(F)C(F)(F)C12F (stereo not drawn)
IC50 (CYP2C9; inhibitor; Tox21 screening): inactive

O=c1[nH]ncn1-c1ccc(N2CCN(c3ccc(OCC4COC(Cn5cncn5)(c5ccc(Cl)cc5Cl)O4)cc3)CC2)cc1 (stereo not drawn)
IC50 (CYP3A4 human; inhibitor; together with: midazolam): 0.00044 µM

O=C(O)C(F)(F)C(F)(F)C(F)(F)C(F)(F)C(F)(F)C(F)(F)F
IC50 (CYP2C9; inhibitor; Tox21 screening): 6.33 µM

COc1ccc([C@H]2c3[nH]c4ccc(Cl)cc4c3CCN2C(=O)Oc2ccc(Cl)cc2)cc1
IC50 (BCRP; substrate transport, inhibitor): 1.27 µM

COc1cc([C@@H]2c3cc4c(cc3[C@@H](O[C@@H]3O[C@@H]5CO[C@@H](C)O[C@H]5[C@H](O)[C@H]3O)[C@H]3COC(=O)[C@H]23)OCO4)cc(OC)c1O
IC50 (MRP1; inhibitor): 48 µM
